Published values collected from several papers.
± gives the spread as reported.

CC[C@H](C)[C@H](NC(=O)[C@H](CCCCN)NC(=O)CNC(=O)[C@H](CC(C)C)NC(=O)[C@@H](NC(=O)[C@H](C)NC(=O)[C@H](CCCCN)NC(=O)CNC(=O)[C@H](C)NC(=O)CNC(=O)[C@H](CCCCN)NC(=O)[C@H](CCSC)NC(=O)[C@H](CCCCN)NC(=O)[C@@H](NC(=O)[C@H](Cc1c[nH]c2ccccc12)NC(=O)[C@H](CC(C)C)NC(=O)[C@H](CCC(N)=O)NC(=O)[C@H](CCCCN)NC(=O)[C@H](CC(C)C)NC(=O)[C@@H](N)CC(C)C)[C@@H](C)O)C(C)C)C(=O)N[C@@H](CCCCN)C(=O)NCC(=O)N[C@@H](CC(C)C)C(=O)N[C@@H](CC(C)C)C(=O)O — Stern-Volmer constant (acrylamide quenching; DOPC:DOPG 3:1 vesicles; 2 µM, 250 µM total lipid, with: acrylamide): 1.23 ± 0.01 M⁻¹
COCCOCCOCCOc1ccc(/C=C/c2c(I)c(C)c3n2[B-](F)(F)[N+]2=C(C)C(I)=C(C)C2=C3c2cc(OC)cc(OC)c2)cc1 — fluorescence quantum yield (dichloromethane; relative to: methylene blue): 0.3
CSCC[C@@H]1NC(=O)[C@@H]2CSSC[C@H](NC(=O)[C@H](CO)NC(=O)[C@H](C)N)C(=O)N[C@@H](CCCNC(=N)N)C(=O)N[C@@H]([C@@H](C)O)C(=O)N3CCC[C@H]3C(=O)N[C@@H](CCCCN)C(=O)N[C@@H](CC(=O)O)C(=O)N[C@H]3CSSC[C@H](NC(=O)[C@H](CCCCN)NC(=O)[C@H](CCCNC(=N)N)NC(=O)[C@H](CC(N)=O)NC1=O)C(=O)N[C@@H](CCCCN)C(=O)N[C@H]1CSSC[C@H](NC(=O)[C@@H]4CCCN4C(=O)[C@H](CC(=O)O)NC(=O)[C@H](C)NC3=O)C(=O)N[C@@H](C)C(=O)N[C@@H](CCCCN)C(=O)N[C@@H](CCC(=O)O)C(=O)N[C@@H]([C@@H](C)O)C(=O)NCC(=O)N[C@@H](CSSC[C@@H](C(N)=O)NC(=O)[C@H](CCCNC(=N)N)NC(=O)[C@H](CC(N)=O)NC1=O)C(=O)N1CCC[C@H]1C(=O)N[C@@H](Cc1ccc(O)cc1)C(=O)NCC(=O)N[C@@H](CCCCN)C(=O)N2 — creatine kinase (DA rat, pristane-induced arthritis, serum; subcutaneous, 0.1 mg/kg once weekly, end of 21-day trial): 314 U/L
CN[C@](C)(C[18F])C(=O)O — tissue uptake (SCID mouse U87 xenograft, spleen; 120 min, post injection): 6 ± 2.4 %ID/g
CSCC[C@H](NC(=O)CNC(=O)[C@H](CC(=O)O)NC(=O)[C@@H](NC(=O)[C@@H](NC(=O)[C@@H](NC(=O)CNC(=O)[C@H](CCC(N)=O)NC(=O)[C@H](CCSC)NC(=O)[C@H](CC(=O)O)NC(=O)[C@H](C)NC(=O)[C@H](C)NC(=O)[C@@H](NC(=O)[C@H](CO)NC(=O)[C@@H](N)CC(C)C)[C@@H](C)O)C(C)C)C(C)C)[C@@H](C)O)C(=O)N[C@@H](C)C(=O)N[C@@H](CO)C(=O)NCC(=O)N[C@@H](CC(C)C)C(=O)N[C@@H](CC(=O)O)C(=O)N[C@@H](CCCCN)C(=O)N[C@@H](CC(=O)O)C(=O)N[C@@H](Cc1ccc(O)cc1)C(=O)N[C@@H](CC(C)C)C(=O)N[C@@H](CCCCN)C(=O)N1CCC[C@H]1C(=O)N[C@@H](CC(=O)O)C(=O)N[C@@H](CC(=O)O)C(=O)O — half-life (human, serum; intravenous, 2.5 mg/kg, patients, infusion): 6.12 min
CC(C)C[C@H](NC(=O)[C@H](CCCCN)NC(=O)[C@H](CCC(=O)O)NC(=O)[C@H](C)NC(=O)[C@@H](NC(=O)[C@H](CCCCN)NC(=O)[C@H](CC(=O)O)NC(=O)[C@H](Cc1ccc(O)cc1)NC(=O)[C@H](Cc1ccccc1)NC(=O)[C@H](C)NC(=O)[C@H](CCCCN)NC(=O)[C@H](CC(C)C)NC(=O)[C@H](Cc1c[nH]c2ccccc12)NC(=O)[C@@H](N)CC(=O)O)C(C)C)C(=O)N[C@@H](CCCCN)C(=O)N[C@@H](CCC(=O)O)C(=O)N[C@@H](C)C(=O)N[C@@H](Cc1ccccc1)C(=O)N1CCC[C@H]1C(=O)N[C@@H](CC(=O)O)C(=O)N[C@@H](Cc1c[nH]c2ccccc12)C(=O)N[C@@H](C)C(=O)N[C@@H](CCCCN)C(=O)N[C@@H](C)C(=O)N[C@@H](C)C(=O)N[C@@H](Cc1ccc(O)cc1)C(=O)N[C@@H](CC(=O)O)C(=O)N[C@@H](CCCCN)C(=O)N[C@@H](C)C(=O)N[C@@H](C)C(=O)N[C@@H](CCC(=O)O)C(=O)N[C@@H](CCCCN)C(=O)N[C@@H](C)C(=O)N[C@@H](CCCCN)C(=O)N[C@@H](CCC(=O)O)C(=O)N[C@@H](C)C(=O)N[C@@H](C)C(=O)O — Cmax (cynomolgus monkey male, plasma; intravenous infusion, 75 mg/kg, day 1, 30 min infusion): 1230 µg/mL
O=P1(NCCCl)NCCCO1 (stereo not shown) — AUC(0-t) (rat, plasma; intravenous, 10 mg/kg, with: ketoconazole 40 mg/kg oral 50 min before): 416 ± 88.9 ng·h/mL
CC[C@H](C)[C@H](NC(=O)[C@H](CCC(=O)O)NC(=O)[C@H](CCC(=O)O)NC(=O)[C@H](Cc1ccccc1)NC(=O)[C@H](CC(=O)O)NC(=O)CNC(=O)[C@H](CC(N)=O)NC(=O)CNC(=O)CNC(=O)CNC(=O)CNC(=O)[C@@H]1CCCN1C(=O)[C@H](CCCNC(=N)N)NC(=O)[C@@H]1CCCN1C(=O)[C@H](N)Cc1ccccc1)C(=O)N1CCC[C@H]1C(=O)N[C@@H](CCC(=O)O)C(=O)N[C@@H](CCC(=O)O)C(=O)N[C@@H](Cc1ccc(O)cc1)C(=O)N[C@@H](CC(C)C)C(=O)O — concentration (LC-MS/MS; human plasma; 4 h, 25 °C, stability, nominal 240.0 ng/mL): 0.243 ± 0.0081 µg/mL
CSCC[C@H](NC(=O)[C@H](Cc1c[nH]c2ccccc12)NC(=O)CNC(=O)[C@H](Cc1ccc(O)cc1)NC(=O)[C@H](C)NC(=O)[C@H](CCC(=O)O)NC(=O)[C@H](Cc1c[nH]cn1)NC(=O)[C@H](Cc1c[nH]cn1)NC(=O)[C@H](Cc1c[nH]cn1)NC(=O)[C@H](Cc1c[nH]cn1)NC(=O)[C@H](Cc1c[nH]cn1)NC(=O)[C@H](Cc1c[nH]cn1)NC(=O)CN1CCN(CC(=O)O)CCN(CC(=O)O)CCN(CC(=O)O)CC1)C(=O)N[C@@H](CC(=O)O)C(=O)N[C@@H](Cc1ccccc1)C(N)=O — tumour-to-kidney ratio (MF1 nude mouse, male, AR-42J xenograft; intravenous, 0.2 µg, 4 h, 111In-labelled; relative to: tumour over kidney): 0.2
C/C=C/C=C/C/C=C/CCCCCCCc1cccc(O)c1O — tissue concentration (female Kunming mice, tumour-bearing, heart; intravenous, 10 mg/kg, 12 h): 1810 ± 150 ng/g
CN1CCN(c2ncc(-c3ccc4c(Nc5ccc(OCc6cccc(F)c6)c(Cl)c5)ccnc4c3)cn2)CC1 — tolerability (mice; oral, 50 mg/kg twice daily): not toxic
c1ccc(C2(CCNC3CCC4(SCCS4)c4ccccc43)CCOC3(CCCC3)C2)nc1 (stereo not shown) — AUC(0-24 h) (mouse; intravenous, 0.3 mg/kg): 59.7 ng·h/mL
CS(C)(=O)=Nc1ccc(-c2ccc(-c3nc4cc(O[C@@H]5CO[C@H]6[C@@H]5OC[C@H]6O)[nH]c4cc3F)cc2)cc1 — clearance (female C57BL/6 mouse, plasma; intravenous, 3 mg/kg): 18 mL/min/kg
COc1ccc(F)cc1S(=O)(=O)Nc1cnc2c(c1)C(=O)NCCO2 — AUC(0-t) (C57BL/6J mice, plasma; oral, 0.1 mg/kg): 29.4 ± 7.2 ng‧h/mL
CC(C)[C@H]1NC(=O)C[C@H]2/C=C/CCSSC[C@@H](NC1=O)C(=O)N[C@H](Cc1cccc3ccccc13)C(=O)NCC(=O)O2 — AUC (nude mouse, blood; oral, 24 mg/kg): 2.22 ng·h/mL
[2H]C([2H])([2H])C([2H])([2H])C([2H])([2H])OC(C(=O)OC1CCNCC1)(c1ccccc1)c1ccccc1 — adverse events (refers to: C-reactive protein increased; healthy Japanese male; oral, 12 mg once daily, 16 days): 14.3%
N=C(N)NCc1ccc(C(=O)NCCCC[C@H](NC(=O)N[C@@H](CCC(=O)O)C(=O)O)C(=O)O)cc1[131I] — tissue uptake (SCID mouse, PC-3 xenografts, blood; 14 h): 0.03 ± 0.01 %ID/g
O=NN(O)NCCS(=O)(=O)O — HNO release half-life (phosphate-buffered saline; pH 7.4, 37 °C): 3.52 h
COc1nc(CC=C(C)CC=CC(C)=CC(C)C(OC2OC(CO)C(O)C(O)C2O)C(C)=CCO)c(C)c(O)c1OC (stereo not shown) — concentration (C57BL/6 mice, acute kidney injury, kidney; 2 mg/kg, 150 min): 0.00128 ± 0.00044 µg/mL
CC[C@H](C)C(=O)N1CCC(NC(=O)Nc2ccc(OC(F)(F)F)c(F)c2)CC1 — subjects with limb injury TEAE (healthy volunteers; oral, 16 mg single dose): 0%
O=C(CN1CCN(c2cc3c(cc2F)c(=O)c(C(=O)O)cn3C2CC2)CC1)Nc1ccc(Cl)cc1 — C0 (mouse, plasma; intravenous, 3.75 mg/kg): 12 µg/mL
CC(CCC(=O)NCC(=O)O)C1CCC2C3CCC4CC(OC5OC(C(=O)O)C(O)C(O)C5O)CCC4(C)C3CC(O)C12C (stereo not shown) — plasma concentration (human, SLCO1B1 *5/*35, plasma; geometric mean, sex-adjusted): 0.0573 µg/mL
COC(=O)C[C@](O)(CCCC(C)(C)OC(C)=O)C(=O)O[C@@H]1C(OC)=C[C@]23CCCN2CCc2cc4c(cc2[C@H]13)OCO4 — tissue concentration (CD1 mouse, lung; subcutaneous, 1 mg/kg, 8 h, below quantification limit 1.00 ng/mL): not detected
N#Cc1c(O)c(Cl)c(Cl)c(C#N)c1Cl — rosuvastatin Cmax (healthy human volunteers, plasma; oral, dose not given, geometric mean, with: rosuvastatin): 0.00388 µg/mL
CCCCC[C@@H]1NC(=O)[C@@H](C)N(C)C(=O)[C@H](CCCCC)NC(=O)[C@@H](C)N(C)C(=O)[C@H](CCCCC)NC(=O)[C@@H](C)N(C)C(=O)[C@H](CCCCC)NC(=O)[C@@H](C)N(C)C1=O — Papp A→B (Caco-2; 10 µM): 2.89 ×10⁻⁶ cm/s
CN(C)C(CNC(=O)Nc1cc(C(F)(F)F)ccc1N1CCOCC1)c1ccncc1 (stereo not shown) — serum indirect bilirubin (mouse, serum; intraperitoneal, 120 mg/kg single dose): 0.2 mg/dL
CC(C)[C@H](NC(=O)CNC(=O)[C@H](CCC(N)=O)NC(=O)[C@H](C)N)C(=O)O — subjects with mild adverse events (human; intravenous infusion, 45 mg/kg/h, 2 h infusion): 50%
C[S]1CC[S]2CC[P](CO)(CO)[99Tc+]12.[C-]#[O+].[C-]#[O+].[C-]#[O+] — uptake in blood (CF-1 mouse; intravenous, 24 h): 0 %ID

For quick reference, copied from above:
CS(C)(=O)=Nc1ccc(-c2ccc(-c3nc4cc(O[C@@H]5CO[C@H]6[C@@H]5OC[C@H]6O)[nH]c4cc3F)cc2)cc1 — clearance (female C57BL/6 mouse, plasma; intravenous, 3 mg/kg): 18 mL/min/kg
COc1ccc(F)cc1S(=O)(=O)Nc1cnc2c(c1)C(=O)NCCO2 — AUC(0-t) (C57BL/6J mice, plasma; oral, 0.1 mg/kg): 29.4 ± 7.2 ng‧h/mL
CC(C)[C@H]1NC(=O)C[C@H]2/C=C/CCSSC[C@@H](NC1=O)C(=O)N[C@H](Cc1cccc3ccccc13)C(=O)NCC(=O)O2 — AUC (nude mouse, blood; oral, 24 mg/kg): 2.22 ng·h/mL
